Assay results pooled from the literature.
Compare with care: the assays were run in different laboratories. Several values in a cell are separate wells, animals, samples, runs or records. Numbers after ± are the reported error.

| SMILES | test | test system | setting | tissue uptake |
| --- | --- | --- | --- | --- |
| O=C(NCC1OC2CCC=CCCC2O1)c1ccc(COCCOCCOCC[18F])cc1 (centres unmarked) | – | healthy female BALB/c nude mice, stomach | intravenous, 7.4 MBq per mouse, 60 min | 2.3 ± 0.7 %ID/g |
| CCCC[C@H](NC(=O)CNC(=O)CNC(=O)[C@H](CCCCNC(=O)[C@H](CC(N)=O)NC(=O)C(C)c1ccc(CC(C)C)cc1)NC(=O)CN1CCN(CC(=O)O)CCN(CC(=O)O)CCN(CC(=O)O)CC1)C(=O)N[C@H]1CC(=O)NCCCC[C@@H](C(N)=O)NC(=O)[C@H](Cc2c[nH]c3ccccc23)NC(=O)[C@H](CCCNC(=N)N)NC(=O)[C@@H](Cc2ccccc2)NC(=O)[C@H](Cc2c[nH]cn2)NC1=O (some centres unmarked) [lutetium-177 labelled] | – | C57 mice, tumour-bearing, heart | 2 h | 0.7 ± 0.33 %ID/g |
| COc1ccc(Nc2nc(Nc3ccc(OCCOCC[18F])cc3)ncc2Br)cc1 | – | ICR mice, S180 tumour-bearing, kidney | intravenous, 370 kBq, 60 min | 6.12 ± 0.12 %ID/g |
| O=C([O-])CN1CCN(CC(=O)[O-])CCN(CC(=O)NC[C@H]2CC[C@H](C(=O)N[C@H](Cc3cnc4ccccc4c3)C(=O)NCCCC[C@H](NC(=O)N[C@@H](CCC(=O)O)C(=O)O)C(=O)O)CC2)CCN(CC(=O)[O-])CC1.[64Cu+2] | ex vivo gamma counting | 22Rv1 tumour-bearing mice, heart | intravenous, 0.74 MBq, 2 h post-injection | 4.8 %ID/g |
| COc1ccc(Nc2nc(Nc3ccc(OCCOCCOCC[18F])cc3)ncc2Br)cc1 | – | ICR mice, S180 tumour-bearing, kidney | intravenous, 370 kBq, 120 min | 6.5 ± 0.91 %ID/g |
| CCCC[C@H](NC(=O)CNC(=O)CNC(=O)[C@H](CCCCNC(=O)[C@H](CC(=O)O)NC(=O)C(C)c1ccc(CC(C)C)cc1)NC(=O)CN1CCN(CC(=O)O)CCN(CC(=O)O)CCN(CC(=O)O)CC1)C(=O)N[C@H]1CC(=O)NCCCC[C@@H](C(N)=O)NC(=O)[C@H](Cc2c[nH]c3ccccc23)NC(=O)[C@H](CCCNC(=N)N)NC(=O)[C@@H](Cc2ccccc2)NC(=O)[C@H](Cc2c[nH]cn2)NC1=O (some centres unmarked) [lutetium-177 labelled] | – | C57 mice, tumour-bearing, brain | intravenous, 0.037 MBq, 4 h | 0.04 ± 0.01 %ID/g |
| N#C[C@@H]1CCCN1C(=O)CNC(=O)c1ccnc2ccc(OCCCN3CCN(C(=O)CCc4ccc5c(c4)CN4CCN6CC(=O)[O][68Ga-]([O]C(=O)C4)([O]5)[O]c4ccc(CCC(=O)N5CCN(CCCOc7ccc8nccc(C(=O)NCC(=O)N9CCC[C@H]9C#N)c8c7)CC5)cc4C6)CC3)cc12 | – | BALB/c nude mice, U-87 MG xenograft, bone | 1 h, blocking, with: DOTA-FAPI-04 40 nmol/mouse co-injected | 1.03 ± 0.44 %ID/g |
| CC(C)C[C@H](NC(=O)[C@@H](CCCCNC(=O)[C@@H](Cc1ccccc1)NC(=O)CCCCCCCNC(=O)CN1CCN(CC(=O)O)CCN(CC(=O)O)CCN(CC(=O)O)CC1)NC(=O)[C@H](Cc1ccc(O)cc1)NC(=O)[C@H](CO)NC(=O)[C@H](Cc1c[nH]c2ccccc12)NC(=O)[C@H](Cc1c[nH]cn1)NC(=O)[C@@H]1CCC(=O)N1)C(=O)N[C@@H](CCCNC(=N)N)C(=O)N1CCC[C@H]1C(=O)NCC(N)=O [indium-111 labelled] | biodistribution | male athymic nude mice, DU-145 prostate cancer xenograft, liver | intravenous, 0.037 MBq, 1 h post-injection | 0.68 ± 0.11 %ID/g |
| Cc1cc(C)n(CCN(CCN)CCCCCCNC(=O)[C@@H](N)Cc2c[nH]cn2)n1.[99Tc+].[C-]#[O+].[C-]#[O+].[C-]#[O+] | – | BALB/c nude mice, A549 xenograft, stomach | intravenous, 24 h | 0.4 ± 0.05 %IA/g |
| O=C(O)CCCOc1ccc([18F])cc1-c1cc(-c2ccccc2C(F)(F)F)n(-c2ccccc2)n1 | – | mice, bladder and urine | intravenous, 60 min | 0.08 ± 0.01 %ID/g |
| CCCC[C@H](NC(=O)COCCOCCNC(=O)CN1CCN(CC(=O)O)CCN(CC(=O)O)CC1)C(=O)N[C@H]1CC(=O)NCCCC[C@@H](C(N)=O)NC(=O)[C@H](Cc2c[nH]c3ccccc23)NC(=O)[C@H](CCCNC(=N)N)NC(=O)[C@@H](Cc2ccccc2)NC(=O)[C@H](Cc2c[nH]cn2)NC1=O [fluorine-18 labelled] | – | C57 mice B16-F10 melanoma, brain | intravenous, 0.37 MBq, 0.5 h | 0.14 ± 0.02 %ID/g |
| Cc1cc(C)n(CCN(CCN)CCCCCCNC(=O)[C@@H](N)Cc2c[nH]c3ccccc23)n1.[99Tc+].[C-]#[O+].[C-]#[O+].[C-]#[O+] | – | BALB/c nude mice, A549 xenograft, blood | intravenous, 15 min | 1.8 ± 0.4 %IA/g |
| O=C(NCC1OC2CCC=CCCC2O1)c1ccc([18F])nc1 (centres unmarked) | – | healthy female BALB/c nude mice, blood | intravenous, 7.4 MBq per mouse, 10 min | 6.3 ± 1.8 %ID/g |
| COc1ccc2c(c1)C(C)(C)C(/C=C/C1=C(Oc3ccc(C(=O)NCCCCOc4cc(CN(Cc5ccccn5)Cc5ccccn5)cc(CN(Cc5ccccn5)Cc5ccccn5)c4)cc3)C(=C/C=C3/N(CCCCS(=O)(=O)[O-])c4ccc(OC)cc4C3(C)C)CCC1)=[N+]2CCCCS(=O)(=O)[O-].O=[N+]([O-])[O-].O=[N+]([O-])[O-].[99Tc+].[C-]#[O+].[C-]#[O+].[C-]#[O+].[Zn+2] | – | healthy BALB/c mice, pancreas | 12 h | 0.78 %ID/g and 0.73 %ID/g and 0.72 %ID/g and 0.65 %ID/g |

Excerpt of the above:
| SMILES | test | test system | setting | tissue uptake |
| --- | --- | --- | --- | --- |
| COc1ccc2c(c1)C(C)(C)C(/C=C/C1=C(Oc3ccc(C(=O)NCCCCOc4cc(CN(Cc5ccccn5)Cc5ccccn5)cc(CN(Cc5ccccn5)Cc5ccccn5)c4)cc3)C(=C/C=C3/N(CCCCS(=O)(=O)[O-])c4ccc(OC)cc4C3(C)C)CCC1)=[N+]2CCCCS(=O)(=O)[O-].O=[N+]([O-])[O-].O=[N+]([O-])[O-].[99Tc+].[C-]#[O+].[C-]#[O+].[C-]#[O+].[Zn+2] | – | healthy BALB/c mice, pancreas | 12 h | 0.78 %ID/g and 0.73 %ID/g and 0.72 %ID/g and 0.65 %ID/g |
| COc1ccc(Nc2nc(Nc3ccc(OCCOCCOCC[18F])cc3)ncc2Br)cc1 | – | ICR mice, S180 tumour-bearing, kidney | intravenous, 370 kBq, 120 min | 6.5 ± 0.91 %ID/g |
